Experimental data from different studies.
Each numbered part is a random draw from the data of one study; scales do not carry over between parts.
Sequence of UniProt Q8NE63 (whole entry, looked up): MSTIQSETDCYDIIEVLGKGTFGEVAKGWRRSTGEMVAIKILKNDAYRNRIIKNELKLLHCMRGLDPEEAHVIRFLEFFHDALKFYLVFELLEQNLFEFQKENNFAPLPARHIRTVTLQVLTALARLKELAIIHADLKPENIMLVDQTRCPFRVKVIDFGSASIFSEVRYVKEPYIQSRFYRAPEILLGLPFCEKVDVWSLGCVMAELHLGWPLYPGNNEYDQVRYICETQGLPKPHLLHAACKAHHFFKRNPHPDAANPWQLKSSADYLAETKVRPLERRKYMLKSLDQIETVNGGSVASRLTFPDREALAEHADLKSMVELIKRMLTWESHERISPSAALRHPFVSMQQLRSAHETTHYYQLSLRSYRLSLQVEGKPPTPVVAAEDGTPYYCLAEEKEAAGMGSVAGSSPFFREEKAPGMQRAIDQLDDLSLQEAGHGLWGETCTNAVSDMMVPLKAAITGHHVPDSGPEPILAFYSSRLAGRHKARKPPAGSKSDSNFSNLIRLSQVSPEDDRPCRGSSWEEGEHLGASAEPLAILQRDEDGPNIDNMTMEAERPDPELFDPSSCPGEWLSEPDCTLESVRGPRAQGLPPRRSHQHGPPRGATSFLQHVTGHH
Sequence of UniProt Q08881 (whole entry, looked up): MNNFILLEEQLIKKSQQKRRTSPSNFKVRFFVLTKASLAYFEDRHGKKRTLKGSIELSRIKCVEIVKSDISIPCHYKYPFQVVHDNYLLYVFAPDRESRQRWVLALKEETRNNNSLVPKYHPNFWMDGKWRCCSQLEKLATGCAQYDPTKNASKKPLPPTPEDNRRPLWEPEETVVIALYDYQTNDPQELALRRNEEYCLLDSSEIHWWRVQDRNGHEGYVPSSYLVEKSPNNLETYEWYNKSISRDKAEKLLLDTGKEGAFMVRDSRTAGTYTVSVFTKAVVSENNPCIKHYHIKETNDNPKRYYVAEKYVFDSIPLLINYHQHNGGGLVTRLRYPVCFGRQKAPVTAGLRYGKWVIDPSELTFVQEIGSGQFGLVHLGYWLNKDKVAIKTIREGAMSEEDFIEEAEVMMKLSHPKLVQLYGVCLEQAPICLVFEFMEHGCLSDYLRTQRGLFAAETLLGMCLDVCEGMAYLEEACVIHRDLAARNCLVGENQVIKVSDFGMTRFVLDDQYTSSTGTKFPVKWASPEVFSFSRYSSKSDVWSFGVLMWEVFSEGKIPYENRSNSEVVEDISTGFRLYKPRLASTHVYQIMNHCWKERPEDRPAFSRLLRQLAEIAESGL
Sequence of UniProt P00519 (whole entry, unmodified, looked up): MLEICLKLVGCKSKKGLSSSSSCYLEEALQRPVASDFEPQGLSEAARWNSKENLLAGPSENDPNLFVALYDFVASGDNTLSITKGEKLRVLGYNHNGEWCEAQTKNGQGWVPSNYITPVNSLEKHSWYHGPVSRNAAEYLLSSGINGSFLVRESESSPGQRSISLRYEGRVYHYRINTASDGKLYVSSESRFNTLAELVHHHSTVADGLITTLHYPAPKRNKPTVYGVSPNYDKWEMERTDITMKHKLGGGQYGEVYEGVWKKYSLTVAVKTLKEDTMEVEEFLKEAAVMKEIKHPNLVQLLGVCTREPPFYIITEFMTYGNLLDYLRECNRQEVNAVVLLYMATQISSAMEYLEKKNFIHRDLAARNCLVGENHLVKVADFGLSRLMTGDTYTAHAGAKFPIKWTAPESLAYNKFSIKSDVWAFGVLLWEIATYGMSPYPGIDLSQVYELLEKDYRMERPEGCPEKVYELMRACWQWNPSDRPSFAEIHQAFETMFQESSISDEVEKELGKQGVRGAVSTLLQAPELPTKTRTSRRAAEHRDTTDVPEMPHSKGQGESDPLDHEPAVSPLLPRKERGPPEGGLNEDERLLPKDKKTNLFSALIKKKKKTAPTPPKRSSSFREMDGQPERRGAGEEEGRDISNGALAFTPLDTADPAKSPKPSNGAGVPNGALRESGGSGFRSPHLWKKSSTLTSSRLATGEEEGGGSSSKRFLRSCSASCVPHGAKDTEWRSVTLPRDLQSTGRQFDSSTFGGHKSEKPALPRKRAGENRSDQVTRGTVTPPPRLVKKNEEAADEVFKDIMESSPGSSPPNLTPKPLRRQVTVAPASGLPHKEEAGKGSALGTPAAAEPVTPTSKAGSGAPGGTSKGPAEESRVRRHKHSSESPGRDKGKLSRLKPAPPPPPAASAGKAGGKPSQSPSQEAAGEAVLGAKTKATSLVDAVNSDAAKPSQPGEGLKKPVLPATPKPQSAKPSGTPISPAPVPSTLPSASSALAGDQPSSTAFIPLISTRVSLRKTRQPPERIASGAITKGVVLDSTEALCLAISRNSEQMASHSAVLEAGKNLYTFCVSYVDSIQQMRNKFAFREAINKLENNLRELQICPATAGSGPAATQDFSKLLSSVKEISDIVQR
Sequence of UniProt Q9UQB9 (whole entry, looked up): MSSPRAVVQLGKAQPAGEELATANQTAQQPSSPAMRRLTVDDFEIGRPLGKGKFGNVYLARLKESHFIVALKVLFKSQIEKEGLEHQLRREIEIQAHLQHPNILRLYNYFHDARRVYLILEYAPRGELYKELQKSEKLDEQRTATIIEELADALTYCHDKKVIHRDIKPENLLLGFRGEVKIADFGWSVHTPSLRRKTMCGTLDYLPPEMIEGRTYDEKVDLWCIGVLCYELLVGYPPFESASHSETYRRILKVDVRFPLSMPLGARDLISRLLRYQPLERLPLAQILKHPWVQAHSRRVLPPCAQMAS
Sequence of UniProt Q05397 (whole entry, looked up): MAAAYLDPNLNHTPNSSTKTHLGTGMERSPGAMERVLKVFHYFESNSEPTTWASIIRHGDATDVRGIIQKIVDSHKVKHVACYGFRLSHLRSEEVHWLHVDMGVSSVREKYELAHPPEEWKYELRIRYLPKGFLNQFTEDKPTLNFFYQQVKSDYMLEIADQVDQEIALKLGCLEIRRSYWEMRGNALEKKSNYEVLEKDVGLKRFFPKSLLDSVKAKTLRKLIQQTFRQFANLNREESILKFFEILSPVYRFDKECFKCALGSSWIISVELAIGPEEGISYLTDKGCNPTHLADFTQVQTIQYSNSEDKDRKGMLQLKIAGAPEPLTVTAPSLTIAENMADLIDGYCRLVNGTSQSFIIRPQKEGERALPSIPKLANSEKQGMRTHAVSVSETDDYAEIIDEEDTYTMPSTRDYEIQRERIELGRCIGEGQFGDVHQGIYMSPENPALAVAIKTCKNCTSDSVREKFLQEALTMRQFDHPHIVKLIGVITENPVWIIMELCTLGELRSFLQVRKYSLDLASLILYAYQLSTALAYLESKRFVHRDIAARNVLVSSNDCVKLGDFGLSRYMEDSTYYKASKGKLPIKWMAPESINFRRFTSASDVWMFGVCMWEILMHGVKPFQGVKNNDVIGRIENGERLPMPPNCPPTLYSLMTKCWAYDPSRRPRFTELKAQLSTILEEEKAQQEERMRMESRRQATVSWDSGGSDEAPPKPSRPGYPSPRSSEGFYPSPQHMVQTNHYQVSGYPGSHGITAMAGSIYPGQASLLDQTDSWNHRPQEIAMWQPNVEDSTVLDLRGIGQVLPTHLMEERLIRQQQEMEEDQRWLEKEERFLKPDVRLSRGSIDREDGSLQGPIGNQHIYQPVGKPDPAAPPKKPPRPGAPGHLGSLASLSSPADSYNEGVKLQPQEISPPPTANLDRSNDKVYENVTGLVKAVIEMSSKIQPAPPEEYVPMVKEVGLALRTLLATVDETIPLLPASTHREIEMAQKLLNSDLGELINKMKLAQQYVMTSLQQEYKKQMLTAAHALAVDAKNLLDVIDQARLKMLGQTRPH

Sample 1 — effect on: cell-free assay; method: competition with immobilised ligand; concentration: 1 µM
Compound: CCCCN(CCCC)C(=O)CN1C[C@@H](c2cc(OC)c3c(c2)OCO3)[C@H](C(=O)O)[C@H]1CC(C)(C)CCC
The remaining binding was 100% (MINK1 (Homo sapiens, UniProt Q8N4C8)).
The remaining binding was 100% (Tyrosine-protein kinase ABL1, non-phosphorylated (ABL1, Homo sapiens, UniProt P00519, F317I)).
PTK2 (Homo sapiens, UniProt Q05397) — remaining binding: 100%.
For Aurora kinase C (AURKC, Homo sapiens, UniProt Q9UQB9): remaining binding read 100%.
For ITK (Homo sapiens, UniProt Q08881): remaining binding read 100%.
The remaining binding was 100% (HIPK4 (Homo sapiens, UniProt Q8NE63)).

Sample 2 — cell line: A-375; concentration: 100 µM; time: 36 h
CCN1CCC[C@H]1CNC(=O)c1cc(S(N)(=O)=O)ccc1OC has a viability of 104%.
The viability of CC[C@@H]1C(=O)OC[C@@H]1Cc1cncn1C is reported as 110%.
With CO/N=C(\C(=O)N[C@@H]1C(=O)N2C(C(=O)OCOC(=O)C(C)(C)C)=C(/C=C\c3scnc3C)CS[C@H]12)c1csc(N)n1 the viability was 44.5%.
For CNCc1cc(-c2ccccc2F)n(S(=O)(=O)c2cccnc2)c1, the viability was 87%.
O=c1cc[nH]c(=O)[nH]1 gave a viability of 102%.
The viability of CNC1(C)C2CCC(C2)C1(C)C (centres unmarked) is reported as 93.3%.

Sample 3 — cell line: mouse MPNST tumor cells; method: high-content immunofluorescence imaging; item: nuclear SOX9; concentration: 10 µM; time: 12 h; setting: mean of 2 replicates; reference: DMSO control; reading: higher = more nuclear SOX9
Under “nuclear SOX9 intensity”, COc1cc(N2CCN(C)CC2)ccc1Nc1ncc2c(n1)N(C)c1ccccc1C(=O)N2 is recorded as 214 % of DMSO.
Under “nuclear SOX9 intensity”, CCCNCC(O)COc1ccccc1C(=O)CCc1ccccc1 (centres unmarked) is recorded as 154 % of DMSO.
Under “nuclear SOX9 intensity”, COc1ccc(CN2C(=O)C(=O)c3cc(OC(F)(F)F)ccc32)cc1 is recorded as 205 % of DMSO.
For Cn1ncc2c(N3CCOCC3)nc(-c3cccc(O)c3)nc21, “nuclear SOX9 intensity” read 88.2 % of DMSO.
Cc1ccc(-n2nc(C(C)(C)C)cc2NC(=O)Nc2ccc(OCCN3CCOCC3)c3ccccc23)cc1: “nuclear SOX9 intensity” 119 % of DMSO.
Under “nuclear SOX9 intensity”, O=C1c2ccccc2C(Cc2ccnc(F)c2)(Cc2ccnc(F)c2)c2ccccc21 is recorded as 102 % of DMSO.

Sample 4 — effect on: enzyme activity; mode: inhibitor; concentration: 0.5 µM; reference: control
Target: Activin receptor type-1-like (ACVRL1, Homo sapiens, UniProt P37023)
Sequence of UniProt P37023 (whole entry, looked up): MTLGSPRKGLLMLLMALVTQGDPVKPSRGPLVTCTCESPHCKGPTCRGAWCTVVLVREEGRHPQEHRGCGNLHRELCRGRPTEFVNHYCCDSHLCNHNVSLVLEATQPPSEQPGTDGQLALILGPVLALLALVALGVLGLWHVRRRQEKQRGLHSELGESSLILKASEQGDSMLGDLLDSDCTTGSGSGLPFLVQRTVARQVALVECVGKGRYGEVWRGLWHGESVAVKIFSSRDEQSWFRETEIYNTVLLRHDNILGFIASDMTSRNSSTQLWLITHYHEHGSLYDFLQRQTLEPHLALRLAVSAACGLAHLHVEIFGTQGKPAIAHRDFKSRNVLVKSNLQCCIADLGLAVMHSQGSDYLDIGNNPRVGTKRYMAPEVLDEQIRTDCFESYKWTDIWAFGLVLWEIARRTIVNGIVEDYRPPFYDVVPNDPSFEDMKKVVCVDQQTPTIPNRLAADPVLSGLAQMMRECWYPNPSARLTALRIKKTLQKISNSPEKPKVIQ
For Cn1c2ccccc2c2c3c(c4c5ccccc5n(CCC#N)c4c21)CNC3=O, the remaining activity was 73.6%.
O=c1c2ccccc2[nH]c(=S)n1CCN1CCC(=C(c2ccc(F)cc2)c2ccc(F)cc2)CC1 has a remaining activity of 101%.
With N#CC(C#N)=C(N)/C(C#N)=C/c1ccc(O)cc1 the remaining activity was 88.8%.
The remaining activity of O=C(Nc1cccc(Nc2cc(Nc3cccc(C(F)(F)F)c3)ncn2)c1)C1CC1 is reported as 114%.
Nc1ncnc2n[nH]c(Nc3ccc(F)cc3)c12 has a remaining activity of 108%.
O=C(CCCc1ccc(-c2ccccc2F)cc1)Nc1ccc(O)cc1 has a remaining activity of 101%.
The remaining activity of Cc1ccc(NC(=O)c2ccc(CN3CCN(C)CC3)cc2)cc1Nc1nc(-c2cccnc2)cs1 is reported as 103%.
Cc1nc(-c2ccccc2)c(-c2ccncc2)o1 has a remaining activity of 95.9%.
The remaining activity of COc1ccc(C(=O)Nc2sc3c(c2C(N)=O)CCCC3)cc1OC is reported as 110%.
For Oc1ccc(-c2nc(-c3ccncc3)c(-c3ccc(F)cc3)[nH]2)cc1, the remaining activity was 95.4%.
CN(C)c1ccc(C=C2C(=O)Nc3ccccc32)cc1 gave a remaining activity of 104%.
For O=S(=O)(c1cccc2cnccc12)N1CCCNCC1, the remaining activity was 111%.
Nc1ccc2ncnc(NCCc3ccc(Oc4ccccc4)cc3)c2c1 gave a remaining activity of 93.5%.
CC(C)[C@H](CO)Nc1nc(Nc2cc(N)cc(Cl)c2)c2ncn(C(C)C)c2n1 has a remaining activity of 109%.
